Published values pooled from the literature.
Lines come from different studies, so protocols differ. ± gives the spread as reported.
APP: Amyloid-beta precursor protein (APP, Homo sapiens, UniProt P05067)
CASP4: Caspase-4 (CASP4, Homo sapiens, UniProt P49662)
ESR1: Estrogen receptor (ESR1, Homo sapiens, UniProt P03372)
B1: calmodulin N-terminal domain; chain AEQLTEEQIAEFKEAFALFDKDGDGTITTKELGTVMRSLGQNPTEAELQDMINEVDADGNGTIDFPEFLSLMARK

COc1cc(/C=C/C(=O)CC(=O)/C=C/c2ccc(O)c(OC)c2)ccc1O
band density (APP; Aβ aggregation, SDS-PAGE western blot, item: Aβ1-42 75-200 kDa band; 30 µM, 24 h, 37 °C, with: Aβ1-42 10 µM; baseline: DMSO): 414 ± 64%

DDEPIYIEFDAHN
kcat/Km fold change (Tyrosine-protein kinase CSK (CSK, Homo sapiens, UniProt P41240); substrate; peptide; concentration not given; baseline: Glu or Asp Y-1 parent peptide): 4.5 fold

CC[C@H](C)[C@H](NC(=O)[C@H](CCC(N)=O)NC(=O)CNC(=O)[C@H](CC(C)C)NC(=O)[C@H](CCCCN)NC(=O)[C@@H]1CCCN1C(=O)[C@H](C)NC(=O)[C@H](CCCNC(=N)N)NC(=O)[C@@H](N)CCCCN)C(=O)NCC(=O)N[C@@H](CCCNC(=N)N)C(=O)N[C@@H](CCC(N)=O)C(=O)N[C@@H](CCCCN)C(=O)N[C@@H](C)C(=O)N[C@H](C(=O)N[C@@H](CC(=O)O)C(=O)N[C@H](C(=O)N[C@@H](CCC(=O)O)C(=O)N[C@@H](CC(=O)O)C(=O)O)[C@@H](C)CC)C(C)C
alpha factor (Calcium/calmodulin-dependent protein kinase type II subunit alpha (CAMK2A, Homo sapiens, UniProt Q9UQM7); enzyme activity, mixed non-competitive inhibitor, Morrison kinetics): 4.3 ± 1.7

CC[C@H](C)[C@H](NC(=O)[C@H](Cc1c[nH]c2ccccc12)NC(=O)[C@@H]1CCCN1C(=O)[C@@H]1CCCN1C(=O)[C@H](Cc1ccccc1)NC(=O)[C@H](CO)NC(=O)CNC(=O)[C@H](CCCNC(=N)N)NC(=O)[C@H](CCCNC(=N)N)NC(=O)[C@H](CCCNC(=N)N)NC(=O)[C@H](CCCNC(=N)N)NC(=O)[C@H](CCCNC(=N)N)NC(=O)[C@@H](N)CCCNC(=N)N)C(=O)N[C@@H](CCC(N)=O)C(=O)N[C@@H](CCC(N)=O)C(=O)N[C@H](C(=O)N[C@@H](CCCNC(=N)N)C(=O)N[C@H](C(=O)O)C(C)C)[C@@H](C)O
kon (Disks large homolog 4, PDZ3 domain (Homo sapiens, UniProt P78352); binding, surface plasmon resonance; pH 7.5, 25 °C): 29000 M⁻¹ s⁻¹

WLRRYLENGK
trimming rate (Endoplasmic reticulum aminopeptidase 2 (ERAP2, Homo sapiens, UniProt Q6P179); substrate, RP-HPLC; peptide; pH 7.0, 37 °C, with: 20 µM precursor): 2 ± 0.04 pmol/nmol/s

CSCC[C@H](NC(=O)[C@H](CC(C)C)NC(=O)[C@H](CCCCN)NC(=O)[C@H](CCCCN)NC(=O)[C@H](Cc1c[nH]cn1)NC(=O)[C@H](CCCNC(=N)N)NC(=O)[C@H](CO)NC(=O)[C@@H](NC(=O)[C@H](CO)NC(=O)[C@H](CCC(N)=O)NC(=O)CNC(=O)[C@H](CCCCN)NC(=O)[C@H](CCCCN)NC(=O)[C@H](CO)NC(=O)[C@H](CCCCN)NC(=O)[C@H](CC(C)C)NC(=O)[C@H](Cc1c[nH]cn1)NC(=O)[C@H](CO)NC(=O)[C@H](Cc1ccc(O)cc1)NC(C)=O)[C@@H](C)O)C(=O)N[C@@H](Cc1ccccc1)C(=O)N[C@@H](CCCCN)C(=O)N[C@H](C(=O)N[C@@H](CCC(=O)O)C(N)=O)[C@@H](C)O
koff (Protein S100-B (Homo sapiens, UniProt P04271); binding, NMR line shape, NMR only; 35 °C, low salt): 1000 ± 200 s⁻¹

Nc1nc2c(ncn2[C@@H]2O[C@@H]3COP(=O)(O)O[C@H]3[C@H]2O)c(=O)[nH]1
relative maximal current (Cyclic nucleotide-gated channel alpha-2 (Cnga2, Rattus norvegicus, UniProt Q00195, C460W/E583M); ion current, agonist, inside-out patch clamp; C460W/E583M channel, -50 mV; baseline: cAMP at saturation): 0.5 ± 0.1

COc1cc2nc(N3CCN(C(=O)C4CCCO4)CC3)nc(N)c2cc1OC (centres unmarked)
remaining activity (CASP4; 33 µM, with: LEHD substrate; baseline: solvent control): 3.25%

Ac-YESTNPFTAK-NH2 (N-acetyl, C-amide)
ΔH (EHD1 EH domain, mouse; ITC; peptide; pH 7.0, 20 °C, 0 mM KCl, first titration): -11.8 kcal/mol

CCc1nc2c([nH]1)c(=O)n(C)c(=O)n2C
remaining activity (Glucocorticoid receptor (Nr3c1, Rattus norvegicus, UniProt P06536); reporter gene, antagonist, MMTV-luciferase; T47D/A1-2; 10 µM, 24 h, with: 5 nM dexamethasone; baseline: maximal activity): 120%

Ac-GPSLNPFDEED-NH2 (N-acetyl, C-amide)
ΔH (EHD1 EH domain, mouse; ITC; peptide; pH 7.0, 20 °C, 0 mM KCl, first titration): -11.3 kcal/mol

CGIA
farnesylation rate constant (Protein farnesyltransferase (Rattus norvegicus, UniProt Q02293+Q04631); substrate, stopped-flow fluorescence; peptide; pH 7.8, 25 °C, single turnover): 0.75 ± 0.07 s⁻¹

O=c1ccn([C@@H]2O[C@H](COP(=O)(O)O)[C@@H](O)[C@H]2O)c(=O)[nH]1
relative Vmax (Adenylate kinase isoenzyme 1 (AK1, Homo sapiens, UniProt P00568); substrate; baseline: kcat of D-AMP with human AK1): 2.9%

Oc1ccc(/C=C/c2cc(O)cc(O)c2)cc1
remaining activity (CASP4; 33 µM, with: LEHD substrate; baseline: solvent control): 7.48%

CNc1cccc2cc(C(=O)NCCc3cccc(C(=O)O)c3)c(=O)[nH]c12
fold increase in activity (DNA gyrase subunit B (gyrB, Escherichia coli, UniProt P0AES6); DNA supercoiling, inhibitor; concentration not given; baseline: analogue without N-methylamino): > 4500 fold

B1 (calmodulin N-terminal domain)
binding (rat NaV1.2 IQ peptide; NMR HSQC; concentration not given, apo and calcium-saturated): no binding

CN(C)C/C=C/C(=O)Nc1cccc(C(=O)Nc2ccc(Nc3nccc(-c4c(-c5ccccc5)nn5ccccc45)n3)cc2)c1
inhibition (Mitogen-activated protein kinase 14 (MAPK14, Homo sapiens, UniProt Q16539); target engagement in cells, inhibitor, chemoproteomics; A-375; 1 µM): 98.9%

CCCSc1nc2c([nH]1)c(=O)n(C)c(=O)n2C
remaining activity (Androgen receptor (AR, Homo sapiens, UniProt P10275); reporter gene, antagonist, PSA-luciferase; HeLa-A6; 10 µM, 24 h, with: 5 nM dihydrotestosterone; baseline: maximal activity): 108%

O=C(C=Cc1ccc(O)c(OC(F)(F)F)c1)C(CCOC1CCCCO1)C(=O)C=Cc1ccc(O)c(OC(F)(F)F)c1 (centres unmarked)
band density (APP; Aβ aggregation, SDS-PAGE western blot, item: Aβ1-42 75-200 kDa band; 30 µM, 24 h, 37 °C, with: Aβ1-42 10 µM; baseline: DMSO): 2610 ± 1040%

CN(c1ccccc1)S(=O)(=O)C1CC2OC1C(c1ccc(O)cc1)=C2c1ccc(O)cc1 (centres unmarked)
efficacy (ESR1; reporter gene, antagonist; HepG2; with: estradiol 10 nM; baseline: E2 response, negative is inverse agonism): 56 ± 2%

Ac-GRPCA-NH2 (N-acetyl, C-amide)
ID50 (Fibroblast growth factor 2, with pentraxin 3 (Homo sapiens, UniProt P09038); binding to PTX3, competitor, surface plasmon resonance; peptide; with: 150 nM free FGF2): 80 µM

CC(=O)N[C@H]1[C@@H](O[C@H](C)[C@H](NC(=O)CNC(=O)[C@H](C)NC(=O)CNC(=O)[C@H](C)NC(=O)CNC(=O)[C@H](C)NC(=O)CNC(=O)[C@@H](NC(=O)[C@H](C)NC(=O)CN)[C@@H](C)O[C@H]2O[C@H](CO)[C@H](O)[C@H](O)[C@H]2NC(C)=O)C(=O)N[C@H](C(=O)N2CCC[C@H]2C(=O)NCC(=O)N2CCC[C@H]2C(=O)NCC(N)=O)[C@@H](C)O)O[C@H](CO)[C@H](O)[C@@H]1O
UDP-GalNAc hydrolysis (Polypeptide N-acetylgalactosaminyltransferase 4 (GALNT4, Homo sapiens, UniProt Q8N4A0); substrate; concentration not given, wild type): ~5%

O=CC=O
Km (aldehyde oxidase F13 (Pseudomonas sp. MX-058); substrate, peroxidase-coupled H2O2; pH 7.0, 30 °C, with: O2 co-substrate): 22.8 mM

CC[C@H](C)[C@H](NC(=O)[C@H](CC(C)C)NC(=O)[C@H](CC(C)C)NC(=O)CNC(=O)[C@H](Cc1ccc(O)cc1)NC(=O)[C@H](CCCNC(=N)N)NC(=O)[C@H](CO)NC(C)=O)C(=O)N[C@@H](CCCCN)C(=O)N[C@@H](C)C(=O)N[C@@H](Cc1ccccc1)C(=O)N[C@@H](CO)C(=O)N[C@@H](CCSC)C(=O)N[C@H](C(=O)N[C@@H](C)C(=O)N[C@@H](C)C(=O)N[C@@H](CCC(=O)O)C(=O)N[C@H](C(=O)N[C@@H](C)C(=O)N[C@@H](CCCNC(=N)N)C(=O)N[C@@H](CCCNC(=N)N)C(=O)N[C@H](C(=O)N[C@@H](CCCNC(=N)N)C(=O)N[C@@H](CCC(=O)O)C(=O)N[C@@H](Cc1ccccc1)C(=O)N[C@@H](CCCNC(=N)N)C(N)=O)[C@@H](C)O)[C@@H](C)O)[C@@H](C)O
apparent ΔG1 (calmodulin 1-80 sites I and II; calcium binding, Phe fluorescence titration; 12 µM, pH 7.4, 22 °C, with: 6 µM calmodulin): -6.25 ± 0.33 kcal/mol

CCN(c1ccccc1Cl)S(=O)(=O)C1CC2OC1C(c1ccc(O)cc1)=C2c1ccc(O)cc1 (centres unmarked)
efficacy (ESR1; reporter gene, antagonist; HepG2; with: estradiol 10 nM; baseline: E2 response, negative is inverse agonism): 20 ± 4%

CC[C@H](C)[C@H](N)C(=O)N[C@@H](CCC(=O)O)C(=O)N[C@@H](CC(C)C)C(=O)N[C@@H](CC(C)C)C(=O)N[C@@H](CCC(N)=O)C(=O)N[C@@H](C)C(=O)N[C@@H](CCCNC(=N)N)C(=O)N[C@@H](CCCCNC(=O)COCCOCCOCCOCCN=[N+]=[N-])C(N)=O
dissociation rate constant (E-selectin (SELE, Homo sapiens, UniProt P16581); binding, surface plasmon resonance): 0.00231 ± 0.000491 s⁻¹

Excerpt of the above:
DDEPIYIEFDAHN
kcat/Km fold change (Tyrosine-protein kinase CSK (CSK, Homo sapiens, UniProt P41240); substrate; peptide; concentration not given; baseline: Glu or Asp Y-1 parent peptide): 4.5 fold

CC[C@H](C)[C@H](NC(=O)[C@H](CCC(N)=O)NC(=O)CNC(=O)[C@H](CC(C)C)NC(=O)[C@H](CCCCN)NC(=O)[C@@H]1CCCN1C(=O)[C@H](C)NC(=O)[C@H](CCCNC(=N)N)NC(=O)[C@@H](N)CCCCN)C(=O)NCC(=O)N[C@@H](CCCNC(=N)N)C(=O)N[C@@H](CCC(N)=O)C(=O)N[C@@H](CCCCN)C(=O)N[C@@H](C)C(=O)N[C@H](C(=O)N[C@@H](CC(=O)O)C(=O)N[C@H](C(=O)N[C@@H](CCC(=O)O)C(=O)N[C@@H](CC(=O)O)C(=O)O)[C@@H](C)CC)C(C)C
alpha factor (Calcium/calmodulin-dependent protein kinase type II subunit alpha (CAMK2A, Homo sapiens, UniProt Q9UQM7); enzyme activity, mixed non-competitive inhibitor, Morrison kinetics): 4.3 ± 1.7

CC[C@H](C)[C@H](NC(=O)[C@H](Cc1c[nH]c2ccccc12)NC(=O)[C@@H]1CCCN1C(=O)[C@@H]1CCCN1C(=O)[C@H](Cc1ccccc1)NC(=O)[C@H](CO)NC(=O)CNC(=O)[C@H](CCCNC(=N)N)NC(=O)[C@H](CCCNC(=N)N)NC(=O)[C@H](CCCNC(=N)N)NC(=O)[C@H](CCCNC(=N)N)NC(=O)[C@H](CCCNC(=N)N)NC(=O)[C@@H](N)CCCNC(=N)N)C(=O)N[C@@H](CCC(N)=O)C(=O)N[C@@H](CCC(N)=O)C(=O)N[C@H](C(=O)N[C@@H](CCCNC(=N)N)C(=O)N[C@H](C(=O)O)C(C)C)[C@@H](C)O
kon (Disks large homolog 4, PDZ3 domain (Homo sapiens, UniProt P78352); binding, surface plasmon resonance; pH 7.5, 25 °C): 29000 M⁻¹ s⁻¹

WLRRYLENGK
trimming rate (Endoplasmic reticulum aminopeptidase 2 (ERAP2, Homo sapiens, UniProt Q6P179); substrate, RP-HPLC; peptide; pH 7.0, 37 °C, with: 20 µM precursor): 2 ± 0.04 pmol/nmol/s
